Assay results gathered from unrelated publications.
Compare with care: the assays were run in different laboratories.

SMILES	assay	system	conditions	quantity	value
CCO[C@H]1CCN(Cc2c(OC)cc(C)c3[nH]ccc23)[C@H](c2ccc(C(=O)O)cc2)C1	–	PNH patients, active haemolysis	oral, 100 mg, 8 weeks, treatment	incidence of back pain	0%
COc1ccc([C@@H](O)c2cc(-c3ncnc4cc(N5CCOCC5)ccc34)c(F)cc2Cl)nn1	–	locally advanced rectal cancer	oral, 250 mg, with: capecitabine and radiotherapy	incidence of proctalgia TEAE	17%
O=C(Nc1nc2cccc(-c3ccc(CN4CCS(=O)(=O)CC4)cc3)n2n1)C1CC1	–	rheumatoid arthritis patients	oral, 150 mg once daily, 4 weeks, TEAE regardless of relatedness	incidence of dizziness	0%
NCCONC(=O)[C@@H]1CC[C@@H]2CN1C(=O)N2OS(=O)(=O)O	–	healthy Chinese male subjects	intravenous, 1 g	incidence of any adverse event	62.5%
C=CC(=O)Nc1cc(Nc2nccc(-c3cn(C)c4ccccc34)n2)c(OC)cc1N(C)CCN(C)C	item: any AE	EGFR-mutant MET-altered NSCLC patients	oral, dose not given, AE grade ≥3, all	incidence of treatment-related AEs	38%
C[C@@H](N)C1CCN(S(=O)(=O)c2cccc3cnccc23)CC1	–	healthy volunteers	150 mg, fed	incidence of headache TEAE	20%
NC1(C(=O)N[C@@H](CCO)c2ccc(Cl)cc2)CCN(c2nc[nH]c3nccc2-3)CC1	–	metastatic CRPC patients	400 mg b.i.d., any grade, treatment-related, with: enzalutamide 160 mg daily	incidence of white blood cell decreased	14.3%
C[C@@H](c1ccc2nccn2c1)n1nnc2ncc(-c3cnn(C)c3)nc21	item: AST increased	EGFR-mutant MET-altered NSCLC patients	oral, dose not given, AE grade ≥3, all	incidence of treatment-related AEs	4%

A few entries again:
SMILES	assay	system	conditions	quantity	value
C=CC(=O)Nc1cc(Nc2nccc(-c3cn(C)c4ccccc34)n2)c(OC)cc1N(C)CCN(C)C	item: any AE	EGFR-mutant MET-altered NSCLC patients	oral, dose not given, AE grade ≥3, all	incidence of treatment-related AEs	38%
